Assay results from different studies.
Each numbered part is a random draw from the data of one study; scales do not carry over between parts. Positions count from the first letter of the parent shown.

Series 1
Target: CCND2, cyclin fold, Cln2 fusion (human)
Technique: yeast growth competition, sequencing
Sample: yeast
Setting: strong parent motif
Baseline: not given
Direction: higher = stronger binding
Quantity: normalised enrichment score
Starting sequence: viral docking peptide; YKVKRRLVFGADD
Variant = YKVKRALVFGADD [R6A]; result = 0.616
Variant = YKVKVRLVFGADD [R5V]; result = 0.756
Variant = YKVKRRLVFWADD [G10W]; result = 0.338
Variant = YKVKRRLVFGVDD [A11V]; result = 1.21
Variant = YKVKRRLTFGADD [V8T]; result = 1.89
Variant = YGVKRRLVFGADD [K2G]; result = 1.35
Variant = YKVKRRKVFGADD [L7K]; result = 0.738
Variant = YKVKRRLDFGADD [V8D]; result = 2.97
Variant = YKVFRRLVFGADD [K4F]; result = -0.389
Variant = YKVKRRLVFGAQD [D12Q]; result = 1
Variant = YAVKRRLVFGADD [K2A]; result = 0.798
Variant = YKVKRRYVFGADD [L7Y]; result = -0.168
Variant = YKVWRRLVFGADD [K4W]; result = -0.0586
Variant = YKVKRRLVEGADD [F9E]; result = 0.33
Variant = YKWKRRLVFGADD [V3W]; result = -0.357
Variant = YKVKRRLVFGALD [D12L]; result = 0.566

Series 2
Target: HLA class I histocompatibility antigen, A alpha chain, allele A*80:01 (Homo sapiens, UniProt P04439)
Observed: peptide-MHC binding
Molecule type: peptide
Concentration: concentration not given
Quantity: binding
Sequence = ILLARLFLY; result = active
Sequence = SLMSRVVYK; result = inactive
Sequence = GVPELGAFF; result = inactive
Sequence = KSSLEVYIY; result = inactive
Sequence = ITMYVAFEQ; result = inactive

Series 3
Target: Centromere-binding protein 1, full length, His-tagged (CBF1, Saccharomyces cerevisiae, UniProt P17106, residues 1-351)
Chain of UniProt P17106 (whole entry, looked up): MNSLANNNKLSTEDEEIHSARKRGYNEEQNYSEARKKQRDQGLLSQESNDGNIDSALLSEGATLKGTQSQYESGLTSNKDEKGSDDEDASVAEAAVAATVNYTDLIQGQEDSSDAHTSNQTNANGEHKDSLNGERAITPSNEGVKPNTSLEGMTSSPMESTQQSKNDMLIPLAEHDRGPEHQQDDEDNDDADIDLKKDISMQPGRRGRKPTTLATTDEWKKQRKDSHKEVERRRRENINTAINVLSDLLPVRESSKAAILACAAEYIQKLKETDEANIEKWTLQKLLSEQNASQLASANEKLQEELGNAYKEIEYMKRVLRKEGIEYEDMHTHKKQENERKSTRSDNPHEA
Technique: competition protein-binding microarray
Molecule type: double-stranded DNA, one strand shown
Sample: in vitro
Concentration: 2 µM
Setting: whole 60-bp probe, lowest competitor level
Together with: Pho4 competitor, 0.05 µM
Direction: higher = stronger binding
Quantity: fluorescence intensity
Shared flanks, not repeated: … GTCTTGATTCGCTTGACGCTGCTG
Sequence = AGTGGGATCGTTCGTCACAGCGTCGATAGGGTAAGG; result = 56.6 a.u.
Sequence = CCTCTTTTAATATGTAACGTGTCGGTTCTATTTATC; result = 239 a.u.
Sequence = ACCGGCAAGCGTTGGCTCATGACAACTGCCACCTCC; result = 71.4 a.u.
Sequence = TGCGCAACAACTTGTCACTTTACTTTATGTCTAGAA; result = 83.7 a.u.
Sequence = CTAACGAAGGTTTGCTCAGTGGGTGACAAGCCAAGT; result = 70.6 a.u.
Sequence = AAATTACTAAGTTTTCACGTGCCGTACCCCGTATGA; result = 1230 a.u.
Sequence = AAAGCGGTAATTTTTCACGTGATTTCACATATCTAT; result = 4710 a.u.
Sequence = AAATTACTAAGTTGTCACCTAACTTACCCCGTATGA; result = 76.6 a.u.

Series 4
Target: Interferon regulatory factor 7, full length, phosphomimetic (IRF7, Homo sapiens, UniProt Q92985, residues 1-503, S101K/S471D/S472D/S475D/S476D/S477D/S483D/S484D/S487D)
Chain of UniProt Q92985 (whole entry, unmodified, looked up): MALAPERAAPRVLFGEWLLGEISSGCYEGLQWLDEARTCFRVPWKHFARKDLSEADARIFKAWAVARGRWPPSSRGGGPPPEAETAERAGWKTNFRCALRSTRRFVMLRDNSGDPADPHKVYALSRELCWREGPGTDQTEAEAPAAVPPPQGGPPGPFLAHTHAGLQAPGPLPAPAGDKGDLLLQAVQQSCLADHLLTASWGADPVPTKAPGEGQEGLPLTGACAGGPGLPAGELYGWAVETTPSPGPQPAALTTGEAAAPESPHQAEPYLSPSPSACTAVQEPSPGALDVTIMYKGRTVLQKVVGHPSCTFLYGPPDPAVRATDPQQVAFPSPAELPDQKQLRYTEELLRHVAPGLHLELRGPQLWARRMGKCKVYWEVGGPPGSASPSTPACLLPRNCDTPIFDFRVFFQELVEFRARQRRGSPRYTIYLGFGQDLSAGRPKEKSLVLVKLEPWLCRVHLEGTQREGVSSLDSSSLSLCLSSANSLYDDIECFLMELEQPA
Technique: protein-binding microarray
Molecule type: double-stranded DNA, one strand shown
Sample: in vitro
Concentration: 250 nM
Setting: 60-bp whole probe
Together with: salmon DNA 0.4 mg/ml
Baseline: random background probes
Direction: higher = stronger binding
Quantity: log fluorescence
Shared flanks, not repeated: GCCTAGCAC … GTCTTGATTCGCTTGACGCTGCTG
Sequence = GGCTGTTTGATCTTGATCCTGTGCTAG; result = -0.805 z-score
Sequence = GACGGTCTCGGTTTCGGCACGTGCTAG; result = 7.1 z-score
Sequence = TCAATTATGAGTCTTGAACTGTGCTAG; result = -0.0601 z-score
Sequence = TTAGATTTCGGTATCGGTTAGTGCTAG; result = 3.01 z-score
Sequence = GACCATTTCAGTTCCGAGACGTGCTAG; result = 1.53 z-score
Sequence = TTTTTTTTTTTTTTTTGGAAGTGCTAG; result = 0.664 z-score
Sequence = TTAGATATCAGTTTCGATTAGTGCTAG; result = 8.51 z-score
Sequence = TACGGTATCGGGTATCGGGACGTGCTA; result = 0.575 z-score

Excerpt of the above (series 2):
Sequence = KSSLEVYIY; result = inactive
Sequence = GVPELGAFF; result = inactive
